Measured values pooled from the literature.
Every numbered part comes from another study and shows a few of its results, in no order. Positions count from the first letter of the parent shown.

Block 1 — method: protein-binding microarray; molecule type: double-stranded DNA, one strand shown; sample: in vitro; concentration: 0.8 µM; setting: whole 60-bp probe, no competitor; direction: higher = stronger binding; constant ends, left off below: … GTCTTGATTCGCTTGACGCTGCTG
Target: Centromere-binding protein 1, full length, N-terminal tag (CBF1, Saccharomyces cerevisiae, UniProt P17106, residues 1-351)
UniProt P17106, sequence (whole entry, looked up): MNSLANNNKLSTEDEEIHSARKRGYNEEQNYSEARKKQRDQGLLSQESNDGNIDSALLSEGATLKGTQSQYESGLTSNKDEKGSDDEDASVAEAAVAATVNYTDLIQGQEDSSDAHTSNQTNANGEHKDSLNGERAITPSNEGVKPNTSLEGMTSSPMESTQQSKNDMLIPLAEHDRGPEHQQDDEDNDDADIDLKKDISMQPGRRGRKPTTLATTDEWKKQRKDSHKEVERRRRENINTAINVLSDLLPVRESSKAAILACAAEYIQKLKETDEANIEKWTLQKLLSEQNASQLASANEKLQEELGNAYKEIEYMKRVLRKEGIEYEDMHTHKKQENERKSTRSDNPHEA
| Sequence | fluorescence intensity |
| --- | --- |
| GAATTTCCATTGAATCTGATGACAGTTGAGTTTTAG | 499 a.u. |
| GAAGAGAAAATTGACCACGTAGTAATAATAAGTTAG | 559 a.u. |
| CTACTTCTTCATCACCACGATGTATCTTTTGTTTTC | 554 a.u. |
| GAAACTCGCTGCCGTCAGGCAAACCACAGATGCTAG | 512 a.u. |
| CTAAAGCATCTGGATCACCAGTACAAACAGTTATTC | 539 a.u. |
| CCTAACTACTATAGTCACGCATAATAGCTTCGTACA | 650 a.u. |
| GAAACGTTTCTTTTTCACGTGCTAAGTGATCTATAG | 6990 a.u. |
| CTATTTTTTCCATCACACGTACTATGGCACCAATTC | 639 a.u. |
| GAAGTATTGAATGTTTTCGTGATGCTTTATTGATAG | 542 a.u. |
| CTACGAACCCTAGGTGACCGCATTAGACAGAGATTC | 496 a.u. |
| CTAGCAGTGTCGTCGTACGTGATGAGGGCAGGCTTC | 528 a.u. |
| GAATACTTCAACACTCTCACGAGTTTAATTCAATAG | 576 a.u. |
| TGTACGAAGCTATGTAACGTGAGTATAGTAGTTAGG | 701 a.u. |
| GAAAGGGGAATAGGTCACATGAAACGACGACAATAG | 2160 a.u. |
| GAAGTTATATTTTCCCACGTTTCACTTCGCGTTTAG | 554 a.u. |

Block 2 — method: aptamer microarray, sandwich; molecule type: DNA with 2'F-ANA; sample: in vitro; concentration: 200 nM; with: Cy3 exosite-II aptamer, 400 nM; direction: higher = stronger binding; sequence: GGTTGGTGTGGTTGG
Target: Prothrombin, mature alpha-thrombin (F2, Homo sapiens, UniProt P00734)
Setting: whole 15-mer aptamer, many near background
| Modification | mean fluorescence intensity [a.u.] |
| --- | --- |
| 2'F-ANA at 1 3 4 6 7 10 11 15 | 257 |
| 2'F-ANA at 3 6 8 9 15 | 822 |
| 2'F-ANA at 4 5 8 11 15 | 55 |
| 2'F-ANA at 1 2 3 6 8 13 | 183 |
| 2'F-ANA at 1 4 5 7 9 10 11 13 15 | 50.4 |
| 2'F-ANA at 4 5 6 7 8 10 11 13 14 | 45.9 |
| 2'F-ANA at 1 4 5 10 13 | 43.4 |
| 2'F-ANA at 1 4 5 7 8 9 11 13 15 | 50.3 |
| 2'F-ANA at 1 4 6 7 9 10 12 14 | 65.3 |
| 2'F-ANA at 4 7 8 12 13 14 | 116 |
| 2'F-ANA at 2 5 7 11 12 | 131 |
| 2'F-ANA at 3 4 6 9 10 11 12 14 15 | 163 |
| 2'F-ANA at 1 3 8 10 12 13 14 | 69.1 |
| 2'F-ANA at 1 3 5 6 7 9 11 12 15 | 91.9 |
| 2'F-ANA at 1 2 3 8 9 12 13 15 | 409 |
| 2'F-ANA at 3 5 7 10 11 | 52.4 |
| 2'F-ANA at 3 4 9 10 11 12 13 14 15 | 181 |
| 2'F-ANA at 1 3 4 5 6 7 8 12 13 15 | 80.5 |
| 2'F-ANA at 1 2 4 5 7 8 11 12 13 | 79.6 |
| 2'F-ANA at 1 2 3 4 6 7 8 14 | 119 |
| 2'F-ANA at 1 2 3 4 9 12 15 | 375 |
| 2'F-ANA at 1 3 7 10 11 12 13 15 | 103 |
| 2'F-ANA at 4 7 8 10 11 12 13 14 15 | 66.6 |
| 2'F-ANA at 4 5 6 7 9 14 15 | 45 |
| 2'F-ANA at 1 4 8 9 11 12 15 | 271 |

Block 3 — target: CCNB2, cyclin fold, Cln2 fusion (human); method: yeast growth competition, sequencing; sample: yeast; setting: weak parent motif; relative to: not given; direction: higher = stronger binding
Starting sequence: WEE1 docking peptide (human); HKTFRKLRLFDTP; partner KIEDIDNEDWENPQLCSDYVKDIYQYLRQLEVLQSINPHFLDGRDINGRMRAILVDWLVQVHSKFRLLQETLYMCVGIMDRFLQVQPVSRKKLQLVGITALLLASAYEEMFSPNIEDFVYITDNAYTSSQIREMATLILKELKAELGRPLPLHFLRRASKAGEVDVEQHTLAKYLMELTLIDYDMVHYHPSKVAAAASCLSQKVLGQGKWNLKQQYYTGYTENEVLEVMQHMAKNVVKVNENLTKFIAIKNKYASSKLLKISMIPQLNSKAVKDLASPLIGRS
| Substitution | normalised enrichment score |
| --- | --- |
| HKTCRKLRLFDTP [F4C] | 0.433 |
| HKTFRKLRLFATP [D11A] | 0.273 |
| HKTFRKLRLTDTP [F10T] | 0.52 |
| HKTFRKVRLFDTP [L7V] | 0.144 |
| HKTFRKLRLFNTP [D11N] | -0.14 |
| HKTFRKLRLFHTP [D11H] | -0.45 |
| HKTFRKLRLFWTP [D11W] | 0.21 |
| HKTFRKLRFFDTP [L9F] | 0.634 |
| HKTFRKLRLFDHP [T12H] | 0.36 |
| HKTYRKLRLFDTP [F4Y] | 0.37 |
| HKTFRKLRLFDNP [T12N] | 1.85 |
| HKTFRKLRLFDTC [P13C] | 0.826 |
| YKTFRKLRLFDTP [H1Y] | 0.352 |
| HKTFRKLRLFDWP [T12W] | 0.417 |
| HKTFRKLKLFDTP [R8K] | 0.898 |
| HKTFRKLDLFDTP [R8D] | 0.309 |

Block 4 — method: DHFR PCA, deep sequencing; sample: yeast; with: (+)-ABA 0.032 µM; relative to: wild-type fitted maximum; direction: higher = stronger binding
Target: ABI1, truncated, D143A, DHFR fusion (Arabidopsis thaliana)
Setting: methotrexate growth selection, single substitutions
Starting sequence: PYL1, truncated, DHFR fusion (Arabidopsis thaliana); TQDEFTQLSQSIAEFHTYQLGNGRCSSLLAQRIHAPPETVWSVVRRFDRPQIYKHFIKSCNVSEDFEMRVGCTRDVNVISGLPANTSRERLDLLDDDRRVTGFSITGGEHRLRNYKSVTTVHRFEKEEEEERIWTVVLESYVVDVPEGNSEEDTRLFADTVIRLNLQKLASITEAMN; partner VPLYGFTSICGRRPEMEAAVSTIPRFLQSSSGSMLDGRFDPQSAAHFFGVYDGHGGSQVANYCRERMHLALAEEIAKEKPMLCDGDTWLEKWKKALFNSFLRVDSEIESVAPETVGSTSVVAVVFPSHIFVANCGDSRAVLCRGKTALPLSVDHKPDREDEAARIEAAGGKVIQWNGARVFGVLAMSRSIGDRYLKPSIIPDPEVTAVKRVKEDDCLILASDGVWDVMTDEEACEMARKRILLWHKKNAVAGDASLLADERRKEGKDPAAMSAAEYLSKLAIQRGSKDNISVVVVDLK
| Substitution | relative binding score [%] |
| --- | --- |
| Q31G | -5.85 |
| V161F | 15.8 |
| S150K | 8.65 |
| V121Q | -1.11 |
| G23N | 23.1 |
| E38K | 4.77 |
| L93M | 26 |
| D95T | 2.75 |
| F157L | 8.2 |
| R123G | 72.6 |
| E64G | 14.9 |
| N114D | 5.12 |
| V44I | 10.5 |
| G71W | -2.68 |
| T39H | 9.51 |
| D95Q | 25 |

Block 5 — method: protein-binding microarray; molecule type: double-stranded DNA, one strand shown; sample: in vitro; concentration: 940 nM top; setting: 60-bp whole probe; with: salmon DNA 0.4 mg/ml; relative to: random background probes; direction: higher = stronger binding; constant ends, left off below: GCCTAGCAC … GTCTTGATTCGCTTGACGCTGCTG
Target: Interferon regulatory factor 5, full length, phosphomimetic (IRF5, Homo sapiens, UniProt Q13568-2, residues 1-514, S451D/S453D/S456D/S462D)
| Sequence | fitted relative affinity [z-score] |
| --- | --- |
| TTAGATTTCAGTTTGGATTAGTGCTAG | 0.657 |
| TTTGAACTGAGTCTCGATTAGTGCTAG | 2.91 |
| GACGGACTGCTTATCCTAACGTGCTAG | -0.194 |
| GACGGTATCGGGTATCGGTACGTGCTA | 6.36 |
| TTTGGCTTTCCTTTATGTCCGTGCTAG | 0.846 |
| GACGAACCGAGTTTCGAGACGTGCTAG | 3.43 |
| TTTTTTTTTTTTTACTTCGGGTGCTAG | 0.886 |
| GACGGTTTCCTTATTCTGACGTGCTAG | 1.92 |
| GACGGTTTCGGGACTGGAGACGTGCTA | 6.31 |
| GGATGTGTCTTAAATAGGGCAGTGCTA | -0.372 |
| TCTGGTTCCCATTCCAGGGTGTGCTAG | 0.58 |
| TCATTTTGCTTTCTTTAACTGTGCTAG | 2.1 |
| TTCGAACTGAGTTTCGATTAGTGCTAG | 8.81 |
| TCAAATAATCTTTTCACACTGTGCTAG | 0.645 |
| AGCAAAAATGATTGGTTGAAGTGCTAG | -0.455 |
| TCAATCTTCATTGTCATACTGTGCTAG | 0.342 |
| TCATTTTCATTTTTTTTACTGTGCTAG | 2.47 |

Excerpt of the above (block 5):
| Sequence | fitted relative affinity [z-score] |
| --- | --- |
| GGATGTGTCTTAAATAGGGCAGTGCTA | -0.372 |
| TCTGGTTCCCATTCCAGGGTGTGCTAG | 0.58 |
| TCATTTTGCTTTCTTTAACTGTGCTAG | 2.1 |
| TTCGAACTGAGTTTCGATTAGTGCTAG | 8.81 |
| TCAAATAATCTTTTCACACTGTGCTAG | 0.645 |
| AGCAAAAATGATTGGTTGAAGTGCTAG | -0.455 |
| TCAATCTTCATTGTCATACTGTGCTAG | 0.342 |
